Experimental data gathered from unrelated publications.
A part holds a random share of what one study measured. Positions count from the first letter of the parent shown.

Study 1
Target: CCNA2, cyclin fold, Cln2 fusion (human)
Technique: yeast growth competition, sequencing
Medium: yeast
Setting: strong parent motif
Reference: not given
Direction: higher = stronger binding
Starting sequence: BRCA2 docking peptide (human); PSIKRNLLNEFDR; partner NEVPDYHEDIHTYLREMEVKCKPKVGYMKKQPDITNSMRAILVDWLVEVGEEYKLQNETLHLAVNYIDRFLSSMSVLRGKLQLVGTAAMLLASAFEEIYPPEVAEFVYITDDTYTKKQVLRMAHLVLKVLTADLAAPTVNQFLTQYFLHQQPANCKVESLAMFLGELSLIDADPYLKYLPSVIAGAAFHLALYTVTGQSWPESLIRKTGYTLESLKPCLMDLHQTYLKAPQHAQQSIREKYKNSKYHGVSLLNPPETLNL
`PSIKRNPLNEFDR [L7P]`: “normalised enrichment score” 0.216.
`PSIKRNLLNEFDN [R13N]`: “normalised enrichment score” 5.55.
Under “normalised enrichment score”, `PSIKRNLLNEFDE [R13E]` is recorded as 4.51.
For `PSIKRELLNEFDR [N6E]`, “normalised enrichment score” read 2.25.
For `PSIKRNLLNFFDR [E10F]`, “normalised enrichment score” read 2.66.
`PSIKRNLLNEPDR [F11P]`: “normalised enrichment score” 1.05.
Under “normalised enrichment score”, `PSIKRNLLNEFKR [D12K]` is recorded as 3.22.
Under “normalised enrichment score”, `PSIKRWLLNEFDR [N6W]` is recorded as 1.42.
For `SSIKRNLLNEFDR [P1S]`, “normalised enrichment score” read 4.69.
Under “normalised enrichment score”, `PSIKRNLLNEFDD [R13D]` is recorded as 4.94.
`PSIKRNLLNEFDV [R13V]` — result for “normalised enrichment score”: 4.37.
`PSIKRNLLNEFDI [R13I]`: “normalised enrichment score” 5.8.
`PSIKRNLLREFDR [N9R]`: “normalised enrichment score” 5.61.
`PSIKRNLLNTFDR [E10T]` — result for “normalised enrichment score”: -0.0277.
`PSIKRNLLNEFLR [D12L]`: “normalised enrichment score” 2.54.
For `PSWKRNLLNEFDR [I3W]`, “normalised enrichment score” read 5.2.

Study 2
Target: Fragile X messenger ribonucleoprotein 1, C-terminal low-complexity region (Fmr1, Mus musculus, UniProt P35922)
Technique: RNA Bind-n-Seq
Molecule type: RNA
Medium: in vitro
Tested at: 200 nM
Setting: whole 134-nt RNA, ends assumed
Together with: 150 mM LiCl
Reference: input library
Direction: higher = stronger binding
All molecules: 7-deaza-guanosine replaces G
With `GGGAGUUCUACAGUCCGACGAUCCAAGUCCUGUGCUACACAUCGUAUGUACCGAAUCGGGUUUGGGUUUUUGGGAGGGAAAGUAUUAUGUUACGCCGUUCGGAUCUGCACUUCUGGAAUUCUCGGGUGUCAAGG` the log2 enrichment was -0.52.
The log2 enrichment of `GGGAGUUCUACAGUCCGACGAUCAAGUCCUGUGCUACACAUCGUAUGUACCGAAUCGGGAGGGAAAGGGAAAAAAAGGGAAAGUAUUAUGUUACGCCGUUCGGAUCUGCACUUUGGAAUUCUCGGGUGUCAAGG` is reported as 0.108.
With `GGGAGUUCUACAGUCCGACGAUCGCAGGAAGUAAAAACAAAUGGAAAUGCUUCGGAUAGUGGCAGGGUUGGGGGUUGCUAAGGAAAGGGUGGGAUGGGAGUGGGUAAAGAGUUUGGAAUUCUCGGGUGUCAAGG` the log2 enrichment was 1.4.
The log2 enrichment of `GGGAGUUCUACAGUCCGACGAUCUCAAGUCCUGUGCUACACAUCGUAUGUACCGAAUCGGAAAGGAAAGGAAAGGGGAAAGUAUUAUGUUACGCCGUUCGGAUCUGCACUUCCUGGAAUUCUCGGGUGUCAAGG` is reported as -0.787.
`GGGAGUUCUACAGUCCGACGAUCAGUCCUGUGCUACACAUCGUAUGUACCGAAUCGGGGAGGGGAAAGGGGUUUUUGGGGAAAGUAUUAUGUUACGCCGUUCGGAUCUGCACUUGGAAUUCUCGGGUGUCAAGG` gave a log2 enrichment of -0.531.
`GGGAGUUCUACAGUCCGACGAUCACAGGAAGUAAAAACAAAUGGAAAUGCUUCGGAUAGUGGCAGGGGUGGGGGUUGCUAAGGAAAGGGUGGGAUGGGAGUGGGUAAAGAGUUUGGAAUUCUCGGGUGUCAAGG` has a log2 enrichment of 1.44.
For `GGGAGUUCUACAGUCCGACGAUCUUAGAAGAACCCGAAGAACCUAAAGUGCUAACACCAGAAGAACAAUUAGCAGAUAAACUGCGGCUAAAGAAAUUACAGGAAGAGUCAGACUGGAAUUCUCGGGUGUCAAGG`, the log2 enrichment was 0.778.
The log2 enrichment of `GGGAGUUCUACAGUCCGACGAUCGCUCGCCCGAGCUCAGAGGUGAUCAAAGACGCCAACUUGUACAUCAGCGGGCUCCCGCGGACCAUGACCCAGAAGGACGUAGAAGACAUGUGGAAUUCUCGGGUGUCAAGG` is reported as -1.79.
The log2 enrichment of `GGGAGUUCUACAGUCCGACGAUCCAAGUCCUGUGCUACACAUCGUAUGUACCGAAUCGGUUUUUGGAAAAAAAGGAGGAAAGUAUUAUGUUACGCCGUUCGGAUCUGCACUUCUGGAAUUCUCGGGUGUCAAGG` is reported as -1.58.
`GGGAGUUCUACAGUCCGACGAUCCACAGACAACACGCACCCACACACACACAGAGGGAAGGGGUUGGGAUGGGGACAGGGUGCACAGCAGGGCGGGGUAGGACCCCAGCCCCUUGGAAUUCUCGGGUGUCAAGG` has a log2 enrichment of 0.142.
With `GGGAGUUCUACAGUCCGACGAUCCCUCAAGUCCUGUGCUACACAUCGUAUGUACCGAAUCGGAAAGGUGGUUUGGAAAGUAUUAUGUUACGCCGUUCGGAUCUGCACUUCCAGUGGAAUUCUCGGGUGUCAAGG` the log2 enrichment was -1.32.

Study 3
Target: RNA binding protein fox-1 homolog 2, RRM domain, GST-SBP tag (RBFOX2, Homo sapiens, UniProt O43251-10, residues 100-194)
Technique: RNA Bind-n-Seq
Molecule type: RNA
Medium: in vitro
Tested at: 365 nM
Setting: natural RNA segment, single round, ends assumed
Reference: no-protein control
Direction: higher = stronger binding
Target sequence (chain): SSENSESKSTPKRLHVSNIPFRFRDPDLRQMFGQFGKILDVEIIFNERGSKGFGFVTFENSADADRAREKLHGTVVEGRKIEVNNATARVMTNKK
`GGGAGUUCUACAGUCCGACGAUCGGAGGUACUGUGAGGAAGAGCAGGCACCAGCAGCAGAAUGGGGAAUGGAGAGGUGGGCAGGGGUUCCAGCUUCCCUUUGAUUUUUUGCUGCAGACUCAUCCUUUUUAAAUUGGAAUUCUCGGGUGCCAA` — result for “RBNS enrichment (R)”: 0.501.
For `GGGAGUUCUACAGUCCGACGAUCUCCUCCACACACCCUCCUUUUUUUACGGUCAAUAUAUUUGUAAAUGGUACAAGAUGAAGGACAACAACUGUCUCCAUGGGCCACGUGCCCUAGAAGGACUCUCCCCAACUUGGAAUUCUCGGGUGCCAA`, “RBNS enrichment (R)” read 0.485.
`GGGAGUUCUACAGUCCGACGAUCAAUAUCCAGUCAUUAAGGAGUUGUCACUCUUCAUCAGAGUCACCGGACCUAUGCAAUUACAUGGGCUCCAUAUCAAAUGGCAUGGUGUCUCUACUGCUGAUUCUCACCUUUGGAAUUCUCGGGUGCCAA`: “RBNS enrichment (R)” 0.18.
Under “RBNS enrichment (R)”, `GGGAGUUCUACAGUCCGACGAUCCCUCAUGUCCUCAGUGGUCUGGCAAGCCGUUCACCCCUGCUGACAGGCUUCAAGCUGCUAAACACCUUCGAGGGCAGUGGCCUCAUCAGUCUGCCAGGGAGACAAGUACAUGGAAUUCUCGGGUGCCAA` is recorded as 0.367.
`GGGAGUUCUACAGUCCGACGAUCCACUUUUAGACAUCUUGUAAUGAAUAGGCCUUGUUGCUACUCUCAAAACAAAUCAAUCGGGAGGGGACCACUGAGAAAGAGGUAACAGUUAUUAAAGGAUGUUUUUGCAAUGGAAUUCUCGGGUGCCAA` — result for “RBNS enrichment (R)”: 1.12.
Under “RBNS enrichment (R)”, `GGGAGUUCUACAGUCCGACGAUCUUGAGUACACUAUUGCUGUCCAUUGCUGCUGUGAAGCCCUAGCUGAAUAUAGAUGUACAAAUCAGUUUGAGCUCUCCUUACAUACUUUGUGUCAGUAUGCAGGACUGCUAUGGAAUUCUCGGGUGCCAA` is recorded as 0.381.
`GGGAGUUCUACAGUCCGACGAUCAUCUAGAGGUGAAACAGGCAAGUGAAAUGGACACCUCUGCUGUGAAUGUUUUAGAGAAGGAAAUUCAAAAAAUGUUGUAACUGAAAGCACUGUUGAAUAUGGGUAUCGGCUGGAAUUCUCGGGUGCCAA` — result for “RBNS enrichment (R)”: 4.34.
`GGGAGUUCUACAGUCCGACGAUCAGAACGAGUAAUUCUCACCCCAAGCAACAUCUAAUAGGGACUGAGUGACCCCAGCCCAGCCUAGUGUCACUUUAGGCCUGACGUUUGAGCAACCCUCGGCUCUUGCCAAGUGGAAUUCUCGGGUGCCAA`: “RBNS enrichment (R)” 0.276.
`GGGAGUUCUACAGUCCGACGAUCUUGAGUUCUGUCUAUAGCCCAGCAGGCUGCCUGUUUAAAAUCCCAUCAUGAAUUUAACAGGCUGAUGUGAGAAUGAAAUAGAUAUUACUGGGGUUUUGUUGUUGUUUGUUUGGAAUUCUCGGGUGCCAA` — result for “RBNS enrichment (R)”: 0.83.
For `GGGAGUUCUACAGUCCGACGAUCGUGGGGAGGGACUGCCUGAGGCCGCAGCUGGUGGGCCUCCUGCAUGUACUAGCAUCCGCAUUCCUCCCUCAGGGCAUGGUCUCAUCUCUGCAUCAGGAAUUUACCAGGAGUGGAAUUCUCGGGUGCCAA`, “RBNS enrichment (R)” read 23.7.
Under “RBNS enrichment (R)”, `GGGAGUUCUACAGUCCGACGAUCUGUUUAUAGUAAAAAGGAAGAGCGUUUCCUAAUCCCUCCUUUACCAUAUCCUACACAGAAAAAUACUUUUAGACUUAUAUUGCCAAGCCAAAGUUACCAUAUUUUGGUGUUGGAAUUCUCGGGUGCCAA` is recorded as 0.694.
Under “RBNS enrichment (R)”, `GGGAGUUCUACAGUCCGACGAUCAGGUAUCUUGUCCCUCUCACUAAAAAGGAGUGUUGUGUGUGGCGGCCACGUGCUUCUAUGUGGUGUUUGACUCUGUACAAAUUCUAGUCCCAAAGAUCAAGUUGUCUGAAUGGAAUUCUCGGGUGCCAA` is recorded as 0.305.

Study 4
Target: Interferon regulatory factor 3, full length, phosphomimetic (IRF3, Homo sapiens, UniProt Q14653, residues 1-427, S386D/S396D/S398D/S402D/T404D/S405D)
Technique: protein-binding microarray
Molecule type: double-stranded DNA, one strand shown
Medium: in vitro
Tested at: 2540 nM top
Setting: 60-bp whole probe
Together with: salmon DNA 0.4 mg/ml
Reference: random background probes
Direction: higher = stronger binding
All sequences stand within: GCCTAGCAC … GTCTTGATTCGCTTGACGCTGCTG
Target sequence (chain): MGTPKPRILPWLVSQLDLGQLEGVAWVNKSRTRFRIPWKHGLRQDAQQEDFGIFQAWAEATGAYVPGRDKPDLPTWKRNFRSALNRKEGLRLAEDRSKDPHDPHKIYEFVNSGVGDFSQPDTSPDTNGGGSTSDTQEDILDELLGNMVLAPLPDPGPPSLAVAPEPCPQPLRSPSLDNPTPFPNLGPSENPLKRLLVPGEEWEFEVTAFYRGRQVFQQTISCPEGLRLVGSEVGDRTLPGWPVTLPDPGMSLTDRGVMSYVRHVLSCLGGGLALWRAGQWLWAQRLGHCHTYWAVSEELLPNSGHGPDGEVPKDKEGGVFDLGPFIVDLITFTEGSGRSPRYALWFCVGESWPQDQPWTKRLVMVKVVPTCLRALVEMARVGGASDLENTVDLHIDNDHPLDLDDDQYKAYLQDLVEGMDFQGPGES
`TTAGCACTGGACTTTCGGTTAGTGCTA`: “fitted relative affinity” 0.978 z-score.
`TCAACTTTCACTTCTCCACTGTGCTAG` — result for “fitted relative affinity”: 5.83 z-score.
Under “fitted relative affinity”, `TTAGGTATCTTTATCCTTTAGTGCTAG` is recorded as 1.71 z-score.
For `TTAGGTCTCCTACTGCTTGAGTGCTAG`, “fitted relative affinity” read 0.928 z-score.
Under “fitted relative affinity”, `TTAGGTATCGACTATCCGTTAGTGCTA` is recorded as 0.664 z-score.
Under “fitted relative affinity”, `GACGGTATCGCCTTTCGGGACGTGCTA` is recorded as 1.62 z-score.
`TTAGGACTGGACTATCGCTTAGTGCTA` — result for “fitted relative affinity”: -0.493 z-score.
`TCATGTTTCCATCTCTCACTGTGCTAG` — result for “fitted relative affinity”: 6.98 z-score.
Under “fitted relative affinity”, `TTAGGTATCGGTATTGGTTAGTGCTAG` is recorded as 3.67 z-score.
Under “fitted relative affinity”, `TTAGGTATCGGCCTCGGTTAGTGCTAG` is recorded as 0.315 z-score.
For `GTAGATTCCAGTTTCGATTAGTGCTAG`, “fitted relative affinity” read 4.76 z-score.
`TATTTTTTCTGAACCATTTTGTGCTAG`: “fitted relative affinity” 1.91 z-score.
Under “fitted relative affinity”, `CCCGATATGCGGTAAGGGCGCGTGCTA` is recorded as -0.158 z-score.
Under “fitted relative affinity”, `GACGAACTGCGGTATCGAGACGTGCTA` is recorded as -0.0751 z-score.

Excerpt of the above (study 1):
For `PSIKRNLLNFFDR [E10F]`, “normalised enrichment score” read 2.66.
`PSIKRNLLNEPDR [F11P]`: “normalised enrichment score” 1.05.
Under “normalised enrichment score”, `PSIKRNLLNEFKR [D12K]` is recorded as 3.22.
Under “normalised enrichment score”, `PSIKRWLLNEFDR [N6W]` is recorded as 1.42.
For `SSIKRNLLNEFDR [P1S]`, “normalised enrichment score” read 4.69.
Under “normalised enrichment score”, `PSIKRNLLNEFDD [R13D]` is recorded as 4.94.
`PSIKRNLLNEFDV [R13V]` — result for “normalised enrichment score”: 4.37.
`PSIKRNLLNEFDI [R13I]`: “normalised enrichment score” 5.8.
